{"data": "Measured values pooled from the literature", "note": "Parts stem from different laboratories: compare values within a part only. Positions count from the first letter of the parent shown.", "UniProt Q8WVD5, sequence (whole entry, looked up)": "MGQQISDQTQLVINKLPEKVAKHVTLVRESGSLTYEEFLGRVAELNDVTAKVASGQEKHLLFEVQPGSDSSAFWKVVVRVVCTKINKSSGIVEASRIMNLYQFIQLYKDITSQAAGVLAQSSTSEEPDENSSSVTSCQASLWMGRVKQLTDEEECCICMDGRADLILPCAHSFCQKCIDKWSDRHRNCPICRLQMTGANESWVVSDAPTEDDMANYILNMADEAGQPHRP", "UniProt Q9Y2X8, sequence (whole entry, looked up)": "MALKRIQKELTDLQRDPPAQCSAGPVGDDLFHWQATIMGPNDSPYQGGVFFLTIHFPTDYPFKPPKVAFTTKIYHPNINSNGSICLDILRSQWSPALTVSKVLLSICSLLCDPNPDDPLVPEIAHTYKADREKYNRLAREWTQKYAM"}
{"data": "Series 1", "target": "HLA class I histocompatibility antigen, A alpha chain, allele A*26:03 (Homo sapiens, UniProt P04439)", "effect on": "peptide-MHC binding", "form": "peptide", "tested at": "concentration not given"}
{"Molecule": "RKWGLDFCY", "binding": "inactive"}
{"Molecule": "VSIRGSHHK", "binding": "inactive"}
{"Molecule": "KVMVICYAY", "binding": "inactive"}
{"Molecule": "ETWVETWAF", "binding": "inactive"}
{"Molecule": "EIYRTLYGL", "binding": "inactive"}
{"Molecule": "HEGDIVPLF", "binding": "inactive"}
{"Molecule": "SFSFGGFTF", "binding": "inactive"}
{"data": "Series 2", "target": "CCNA1, cyclin fold, Cln2 fusion (human)", "technique": "yeast growth competition, sequencing", "medium": "yeast", "setting": "strong parent motif", "reference": "not given", "direction": "higher = stronger binding", "starting sequence": "viral docking peptide; TSVRRALFTGGSD; partner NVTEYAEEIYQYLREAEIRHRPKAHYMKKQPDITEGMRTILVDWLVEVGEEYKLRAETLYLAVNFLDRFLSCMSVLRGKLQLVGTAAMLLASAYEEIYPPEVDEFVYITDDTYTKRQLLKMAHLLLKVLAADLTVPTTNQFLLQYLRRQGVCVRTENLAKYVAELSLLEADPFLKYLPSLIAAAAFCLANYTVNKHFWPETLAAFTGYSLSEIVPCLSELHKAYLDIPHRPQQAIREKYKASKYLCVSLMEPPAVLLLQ"}
{"Substitution": "TSVRRAHFTGGSD [L7H]", "normalised enrichment score": -0.145}
{"Substitution": "TSVRRDLFTGGSD [A6D]", "normalised enrichment score": 0.498}
{"Substitution": "TSVRRALFTVGSD [G10V]", "normalised enrichment score": 0.84}
{"Substitution": "TSVCRALFTGGSD [R4C]", "normalised enrichment score": -0.0212}
{"Substitution": "TSVLRALFTGGSD [R4L]", "normalised enrichment score": -0.317}
{"Substitution": "TSVRRALFPGGSD [T9P]", "normalised enrichment score": 0.862}
{"Substitution": "TSVRRALFVGGSD [T9V]", "normalised enrichment score": 1.33}
{"Substitution": "TSVRRALDTGGSD [F8D]", "normalised enrichment score": -0.115}
{"Substitution": "TSLRRALFTGGSD [V3L]", "normalised enrichment score": 0.184}
{"Substitution": "TSVRRAVFTGGSD [L7V]", "normalised enrichment score": 0.102}
{"Substitution": "TSVRRALFTWGSD [G10W]", "normalised enrichment score": 0.287}
{"Substitution": "TSVRRRLFTGGSD [A6R]", "normalised enrichment score": 1.11}
{"Substitution": "TSVRRALFTGRSD [G11R]", "normalised enrichment score": 0.518}
{"Substitution": "TMVRRALFTGGSD [S2M]", "normalised enrichment score": 1.03}
{"Substitution": "TSVRRALFQGGSD [T9Q]", "normalised enrichment score": 0.628}
{"Substitution": "TTVRRALFTGGSD [S2T]", "normalised enrichment score": 1.65}
{"Substitution": "TSVRRALATGGSD [F8A]", "normalised enrichment score": 0.268}
{"Substitution": "TSVIRALFTGGSD [R4I]", "normalised enrichment score": -0.0193}
{"Substitution": "TNVRRALFTGGSD [S2N]", "normalised enrichment score": 1.36}
{"Substitution": "TSVRRALFTGKSD [G11K]", "normalised enrichment score": 1.09}
{"Substitution": "TSVRRALFTTGSD [G10T]", "normalised enrichment score": 1.01}
{"Substitution": "TSVRRGLFTGGSD [A6G]", "normalised enrichment score": 0.6}
{"data": "Series 3", "target": "Hepatocyte nuclear factor 3-beta, forkhead domain (FOXA2, Homo sapiens, UniProt Q9Y261, residues 142-269)", "technique": "protein-binding microarray", "form": "double-stranded DNA, one strand shown", "medium": "in vitro", "tested at": "not given", "setting": "k-mer, scored over probes, only values ≥0.25", "direction": "higher = stronger binding", "Construct (chain)": "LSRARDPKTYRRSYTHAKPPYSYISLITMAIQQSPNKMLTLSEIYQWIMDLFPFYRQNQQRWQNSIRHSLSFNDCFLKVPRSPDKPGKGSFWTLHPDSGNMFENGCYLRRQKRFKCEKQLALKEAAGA"}
{"Oligonucleotide": "ATACACAC", "E-score": 0.3}
{"Oligonucleotide": "ATCAAACA", "E-score": 0.341}
{"Oligonucleotide": "ACATTAAG", "E-score": 0.313}
{"Oligonucleotide": "ACCATATG", "E-score": 0.307}
{"Oligonucleotide": "AGTAATAG", "E-score": 0.266}
{"Oligonucleotide": "TAGTAATA", "E-score": 0.285}
{"Oligonucleotide": "ATAACGCA", "E-score": 0.264}
{"Oligonucleotide": "CGGTATAA", "E-score": 0.258}
{"data": "Series 4", "target": "RING finger protein unkempt homolog, zinc fingers 1-6, GST-SBP tag (UNK, Homo sapiens, UniProt Q9C0B0, residues 30-357)", "technique": "RNA Bind-n-Seq", "form": "RNA", "medium": "in vitro", "tested at": "not given", "setting": "RNA with constant flanks, human-mouse chimeric sites, ends assumed", "reference": "input RNA pool", "direction": "higher = stronger binding", "constant ends, left off below": "GGGAGUUCUACAGUCCGACGAUC … CAACAGAGGAUUGAGCAUCA", "UniProt Q9C0B0, sequence (30-357, looked up)": "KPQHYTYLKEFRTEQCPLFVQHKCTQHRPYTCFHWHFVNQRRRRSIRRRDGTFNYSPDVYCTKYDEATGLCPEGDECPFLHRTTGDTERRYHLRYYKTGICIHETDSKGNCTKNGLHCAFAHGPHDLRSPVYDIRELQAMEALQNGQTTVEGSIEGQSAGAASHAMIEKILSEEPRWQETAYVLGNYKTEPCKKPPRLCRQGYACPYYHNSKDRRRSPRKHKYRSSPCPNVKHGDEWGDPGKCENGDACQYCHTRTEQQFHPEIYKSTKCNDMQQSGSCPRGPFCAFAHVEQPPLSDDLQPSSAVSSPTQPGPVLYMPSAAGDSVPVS"}
{"Oligonucleotide": "GGACAUCUGUCAAAUUGUUAUGUUCCUAAAAACGUAGUGAACACUCUGAUACACUUCAUCUGCUUGUACAUCUGUAUGAUAGAGAAAUGUAAAUAUGAAUAUAUUUACAAUGUGUCACUU", "bound/input enrichment [ratio]": 0.141}
{"Oligonucleotide": "UGUGCAUAUGAUGCUUGAGAUGGUUUUUGCAAAAGCAGAAAUCGCUGCAAGGUAAUCACAAUAGAUACAAGCGGUAUUUUAAACCUUUGAAAUAAAUGGAUGUAACUGUACGUUGGUACA", "bound/input enrichment [ratio]": 0.259}
{"Oligonucleotide": "GGUGGGGGGUUGUCAUUCGUUUGAGCUGCUGAUUUUCAUGAGUCGCCUUCAAAACUCUCGUGUAGGGUUGACACUGUGGGGGGGUGGGGGAUCCAGCUUAUUCUUUUAUUUUCAAGUCCA", "bound/input enrichment [ratio]": 0.464}
{"Oligonucleotide": "AUCAAGUACUUUGGGGACAUCAUUAGUGUGGGACAGAGACUGUUGCAAGGAGCUCGGAUCUUAGGGAUUCCAGUUAUCAUAACGGAACAAUACCCCAAAGGACUUGGGAGCACGGUUCAA", "bound/input enrichment [ratio]": 0.219}
{"Oligonucleotide": "UAAGUUAUUUUGUACAGCUUUGUAAAUUCUUAACAUUAAUUUGUAAACAUGUUUAUUUUGUUUGGGUAAUUUGGUUCAUUAAGUACAAAACCAAAUAAAUGAACAUCUUUUUCAGUAAUU", "bound/input enrichment [ratio]": 0.24}
{"Oligonucleotide": "GGCCUGGGACCGUCCUGGGCUAGUACAAAUAGCGGCAUGGAGGCUCAGAGAGGAAAGUUUGUUAGUGGAGGCAGUGGUAGAGGCCGUCAUGUACGGUCCUUUACUCGAUAGAUGUGUUCU", "bound/input enrichment [ratio]": 0.738}
{"Oligonucleotide": "CUUAAUGUUAAUAUUUUUGAAUAAAUGAAGCUAAAAUGUCUGCUUUUGGUACUACAUGCAUUAGCGAAAGGUUAAGUUUUGUUUUCCACUGAAGUACUAUUUAACAUCUCAGAAAAAAAC", "bound/input enrichment [ratio]": 0.464}
{"Oligonucleotide": "UAAAUUAGGGCUGCCGUUUUCUGUUUCUCCCUGGGCUGCAGACAGCUAGAAGAUUUUAUCUAGCUUAUACAAGGCUGCUGGUGUUCCCUCUUUUUUUCCCUCUCUCUGUUUUUGGCUGCA", "bound/input enrichment [ratio]": 1.22}
{"data": "Other studies, line by line"}
{"Substance": "CEP43 (Homo sapiens, UniProt O95684)", "target or system": "LAMP5 (Homo sapiens, UniProt Q9UJQ1)", "test": "cross-linking MS", "system": "cells", "setting": "with: BSPNO", "quantity": "cross-linked residues", "result": "K184 to M1"}
{"Substance": "RNF141 RING domain (UniProt Q8WVD5)", "target or system": "UBE2D4 UBC core domain (UniProt Q9Y2X8)", "test": "yeast two-hybrid", "system": "yeast", "setting": "mostly zero background", "scale": "reference: not given, higher = stronger interaction", "quantity": "lacZ reporter activity", "result": 0}
{"note": "Some of these lines once more (series 2):"}
{"Substitution": "TSVRRALFPGGSD [T9P]", "normalised enrichment score": 0.862}
{"Substitution": "TSVRRALFQGGSD [T9Q]", "normalised enrichment score": 0.628}
{"Substitution": "TSVRRALFVGGSD [T9V]", "normalised enrichment score": 1.33}
{"Substitution": "TSVRRALDTGGSD [F8D]", "normalised enrichment score": -0.115}
{"Substitution": "TSVLRALFTGGSD [R4L]", "normalised enrichment score": -0.317}
